{"data": "Measured values pooled from the literature", "note": "Every numbered part comes from another study and shows a few of its results, in no order. Substitutions count along the parent as printed."}
{"data": "Sample 1", "target": "RNA binding protein fox-1 homolog 2, RRM domain, GST-SBP tag (RBFOX2, Homo sapiens, UniProt O43251-10, residues 100-194)", "method": "RNA Bind-n-Seq", "form": "RNA", "medium": "in vitro", "tested at": "365 nM", "notes": "natural RNA segment, single round, ends assumed", "reference": "no-protein control", "direction": "higher = stronger binding", "constant ends, left off below": "GGGAGUUCUACAGUCCGACGAUC … UGGAAUUCUCGGGUGCCAA"}
{"Oligonucleotide": "CUCAGGAAGACCCACCUCUAUACCAUCUAGGAAGUGGGCACUGACUUUAAAGCGCUCCAGCCAACAGCUGUAGGUGAGACCUGGGAGGGGAGGAACUGCACCAGCGCACA", "RBNS enrichment (R)": 0.64}
{"Oligonucleotide": "CUGGUACCAGGGAAGAGGGAGAAUUAAUUUAUUGUGCAAAUGCUGGUAUUUCUUACAUGAUUUUUUGUUUUCCUCUGUUGCUAGAUAAAUAGAAACUAAUAAUAGCUCUA", "RBNS enrichment (R)": 0.58}
{"Oligonucleotide": "CUUUGCACAAUGUCUUUGGUUGCAAGUCAUAAGCCUGAGGCAAAUAAAAUUCCAGUAAUUUCCAAGAAUGUGGUGUUGGUACUUUCCUAAUAAACCGAUAACGUACCUUG", "RBNS enrichment (R)": 5.99}
{"Oligonucleotide": "UUCACUUGCAUAUGAAAUAUAAGGCAGUUAACAUCUUGUUUGUGGCUUAAGCAAGGACAUUAAUCCUACUAGAUGAAGGGGAAGUUGGUUCUGUUGUCUUAAGGGAUGCC", "RBNS enrichment (R)": 0.658}
{"Oligonucleotide": "CUUCUGCUGCUCUGGUCUAUCCCUGAAAACAGAUGUCUUGAAACACUUUUCAUAUUCUUAAAAUAAUCUUCACUUCUGUUAAGAAGAACAUGUUGGUGGGUAAUUAUGCG", "RBNS enrichment (R)": 0.401}
{"Oligonucleotide": "UGUGCAUAGGCAGCCCUCUCACGUCUUGAGGUCCGAAGCUGGGGUGGGGGUGUCCGUCAGUUAUUAGUGGAUGGAGAUUCCCACAGCAAGGCUGCAUUUGAAUGAUUUCC", "RBNS enrichment (R)": 0.717}
{"Oligonucleotide": "CCCUGACAACUGGGUUUGUCCUCCCUACUCCCACCCCAAGUGGUCAAUAAGUCUUAUUUGCAAAAGCCAUGAUCUUCAAGGGUGAGAGAAAAAUCUGAAGGUCAGCGGAG", "RBNS enrichment (R)": 0.376}
{"Oligonucleotide": "GGCCAAGGCCGCUAGGGUCCUUACCCCUCAGGAUCACUCCCCAGCCCUUUCCUCAGGAGGUACCGCUCUCCAAGGUGUGCUAGCAGUGGGCCCUGCCCAACUUCAGGCAG", "RBNS enrichment (R)": 0.374}
{"Oligonucleotide": "GUCCCGGGGGCUGAACGUGUGGCGUUUGGUUACUGAAGCCUGCUCAGGCGAAGCUGGGUCUUGUGCAUGUUCCCACUGUUUCAUCCUGUCCUCGCCAGGGAUCUGGGUGG", "RBNS enrichment (R)": 5.19}
{"Oligonucleotide": "UUCAGGGGAAGACUGUGGUCAAGUUAAAAAAAAAAAACAAUAUUAAACAACAUGAAACUGCAGUCUGUUUUUGAAAAUGAGAAUGUCCUAAGUGAUUCAGAAGAGAGGAG", "RBNS enrichment (R)": 1.18}
{"Oligonucleotide": "CUUCCUGAGUUUUCUCAGUUUUUACAUCUAAGAUUAGUCUUGGCUGAAGAGAAAUGAGACGUGAUUAUACUACUUUUUCAAUUGCAGGUUUAAGGAGUUCAGAUUUAAUG", "RBNS enrichment (R)": 0.432}
{"Oligonucleotide": "UGCUUAUUAUGGUAAAAUAAAAUUGGAAAAAAUUAAAACUGACCUAUAAGAGUGUUAAGGACCUAAUAGAGUGACAUAUAUAAAUUAAGCAUAAAAUAUGUAACCAGGAA", "RBNS enrichment (R)": 0.582}
{"data": "Sample 2", "target": "UBE2Z UBC core domain (UniProt Q9H832)", "method": "yeast two-hybrid", "medium": "yeast", "notes": "mostly zero background", "reference": "not given", "direction": "higher = stronger interaction", "B1": "UHRF2 RING domain (UniProt Q96PU4); chain CGGDPEKKCHSCSCRVCGGKHEPNMQLLCDECNVAYHIYCLNPPLDKVPEEEYWYCPSCKTDSSEVVKAGER", "B2": "ARK2C RING domain (UniProt Q6ZSG1); chain EGEESDTDEKCTICLSMLEDGEDVRRLPCMHLFHQLCVDQWLAMSKKCPICRVDIETQLGAD", "B3": "TRIM63 RING domain (UniProt Q969Q1); chain PMENLEKQLICPICLEMFTKPVVILPCQHNLCRKCANDIFQAANPYWTSRGSSVSMSGGRFRCPTCRHEVIMDRHGV", "B4": "PHF21A RING domain (UniProt Q96BD5); chain SPTSTDGDIHEDFCSVCRKSGQLLMCDTCSRVYHLDCLDPPLKTIPKGMWICPRCQDQMLKKEEAIPW", "B5": "IRF2BPL RING domain (UniProt Q9H1B7); chain SPMANSGPLCCTICHERLEDTHFVQCPSVPSHKFCFPCSRESIKAQGATGEVYCPSGEKCPLVGSNVP", "B6": "RNF25 RING domain (UniProt Q96BH1); chain LTDNNIPHGQCVICLYGFQEKEAFTKTPCYHYFHCHCLARYIQHMEQELKAQGQEQEQERQHATTKQKAVGVQCPVCREPLVYDLASL", "Construct (chain)": "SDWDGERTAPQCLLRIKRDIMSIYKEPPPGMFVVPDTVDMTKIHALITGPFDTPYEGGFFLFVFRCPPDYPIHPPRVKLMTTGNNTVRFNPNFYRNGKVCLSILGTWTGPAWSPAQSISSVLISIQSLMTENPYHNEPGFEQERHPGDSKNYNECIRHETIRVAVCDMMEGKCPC"}
{"Sequence": "B1 (UHRF2 RING domain)", "lacZ reporter activity": 0}
{"Sequence": "VTLSLTLPITCHICLGKVRQPVICINNHVFCSICIDLWLKNNSQCPACRVPITPENPCK (OBI1 RING domain (UniProt Q5W0B1))", "lacZ reporter activity": 0}
{"Sequence": "QLRRLQEERTCKVCMDKEVSIVFIPCGHLVVCKDCAPSLRKCPICRSTIKGTVRTF (BIRC3 RING domain (UniProt Q13489))", "lacZ reporter activity": 0}
{"Sequence": "KTLSRFGIQPCSICLGDAKDPVCLPCDHVHCLRCLRAWFASEQMICPYCLTALPDEFSPA (RNF213 RING domain (UniProt Q63HN8))", "lacZ reporter activity": 0}
{"Sequence": "B2 (ARK2C RING domain)", "lacZ reporter activity": 0}
{"Sequence": "RLTMMWEEVTCPICLDPFVEPVSIECGHSFCQECISQVGKGGGSVCPVCRQRFLLKNLRP (TRIM21 RING domain (UniProt P19474))", "lacZ reporter activity": 0}
{"Sequence": "B3 (TRIM63 RING domain)", "lacZ reporter activity": 0}
{"Sequence": "B4 (PHF21A RING domain)", "lacZ reporter activity": 0}
{"Sequence": "QLRRLQEERTCKVCMDKEVSVVFIPCGHLVVCQECAPSLRKCPICRGIIKGTVRTF (BIRC2 RING domain (UniProt Q13490))", "lacZ reporter activity": 0}
{"Sequence": "EDEVSDNSAECVVCLSDVRDTLILPCRHLCLCNTCADTLRYQANNCPICRLPFRALLQIR (RNF157 RING domain (UniProt Q96PX1))", "lacZ reporter activity": 0}
{"Sequence": "B5 (IRF2BPL RING domain)", "lacZ reporter activity": 9990}
{"Sequence": "B6 (RNF25 RING domain)", "lacZ reporter activity": 0}
{"data": "Sample 3", "target": "Histone acetyltransferase KAT6A, winged helix 1, GST fusion (KAT6A, Homo sapiens, UniProt Q92794, residues 1-85)", "method": "protein binding microarray", "form": "double-stranded DNA, one strand shown", "medium": "in vitro", "tested at": "not given", "notes": "8-mer, flanks averaged, mean of 2 arrays, mostly near background", "reference": "not given", "direction": "higher = stronger binding", "Target sequence (chain)": "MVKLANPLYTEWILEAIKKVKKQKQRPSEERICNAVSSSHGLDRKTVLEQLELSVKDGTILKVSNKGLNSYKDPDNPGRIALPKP"}
{"Oligonucleotide": "GATGAATC", "E-score": -0.186}
{"Oligonucleotide": "ATCGCCGA", "E-score": 0.306}
{"Oligonucleotide": "GAAATTTA", "E-score": -0.207}
{"Oligonucleotide": "ACGTCTTC", "E-score": -0.0476}
{"Oligonucleotide": "GTGCATGA", "E-score": -0.127}
{"Oligonucleotide": "CGGAATTC", "E-score": -0.0471}
{"Oligonucleotide": "ACATTAGT", "E-score": -0.117}
{"Oligonucleotide": "ATCAAACC", "E-score": -0.134}
{"Oligonucleotide": "CTTTTGCA", "E-score": -0.112}
{"Oligonucleotide": "ATGCAAAC", "E-score": -0.0797}
{"Oligonucleotide": "ATCATCTG", "E-score": -0.141}
{"Oligonucleotide": "CAACACCG", "E-score": 0.228}
{"Oligonucleotide": "CCACCGTC", "E-score": 0.245}
{"Oligonucleotide": "CATCTGTA", "E-score": 0.0205}
{"Oligonucleotide": "CTGCTATA", "E-score": -0.0573}
{"Oligonucleotide": "AGCTGCCC", "E-score": 0.0705}
{"Oligonucleotide": "AGGGAGCC", "E-score": 0.144}
{"Oligonucleotide": "CTTCTTTA", "E-score": 0.0513}
{"data": "Sample 4", "target": "ABI1, truncated, D143A, DHFR fusion (Arabidopsis thaliana)", "method": "DHFR PCA, deep sequencing", "medium": "yeast", "notes": "methotrexate growth selection, single substitutions", "with": "(+)-ABA 17 µM", "reference": "wild-type fitted maximum", "direction": "higher = stronger binding", "parent": "PYL1, truncated, DHFR fusion (Arabidopsis thaliana); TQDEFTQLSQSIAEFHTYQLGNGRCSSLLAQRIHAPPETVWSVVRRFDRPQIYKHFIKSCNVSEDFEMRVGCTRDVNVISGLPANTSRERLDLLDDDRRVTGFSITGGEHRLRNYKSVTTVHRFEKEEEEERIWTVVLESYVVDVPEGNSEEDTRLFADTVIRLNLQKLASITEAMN"}
{"Change": "R45V", "relative binding score": "-9.03%"}
{"Change": "S87K", "relative binding score": "-1.04%"}
{"Change": "V145R", "relative binding score": "16%"}
{"Change": "R163D", "relative binding score": "4.36%"}
{"Change": "V40W", "relative binding score": "-22.9%"}
{"Change": "G81F", "relative binding score": "4.95%"}
{"Change": "R113I", "relative binding score": "80.8%"}
{"Change": "E109K", "relative binding score": "63.9%"}
{"Change": "D144K", "relative binding score": "24.2%"}
{"Change": "S104W", "relative binding score": "-10.2%"}
{"Change": "Q10A", "relative binding score": "88.1%"}
{"Change": "I79S", "relative binding score": "63.8%"}
{"Change": "I52P", "relative binding score": "7.55%"}
{"Change": "F124M", "relative binding score": "109%"}
{"Change": "R155G", "relative binding score": "2.77%"}
{"Change": "R46T", "relative binding score": "58.9%"}
{"Change": "R113L", "relative binding score": "74.9%"}
{"Change": "R74I", "relative binding score": "-13.1%"}
{"data": "Sample 5", "target": "CCNF, cyclin fold, Cln2 fusion (human)", "method": "yeast growth competition, sequencing", "medium": "yeast", "notes": "strong parent motif", "reference": "not given", "direction": "higher = stronger binding", "parent": "SCAPER docking peptide (human); SNARRSLNFGGST"}
{"Change": "ENARRSLNFGGST [S1E]", "normalised enrichment score": 7.29}
{"Change": "SNARRSLNFGKST [G11K]", "normalised enrichment score": 6.36}
{"Change": "SNANRSLNFGGST [R4N]", "normalised enrichment score": 3.7}
{"Change": "SNARRSLNFGVST [G11V]", "normalised enrichment score": 7.45}
{"Change": "INARRSLNFGGST [S1I]", "normalised enrichment score": 8.99}
{"Change": "SNARRSLNFGGSG [T13G]", "normalised enrichment score": 7.05}
{"Change": "SNARRSLYFGGST [N8Y]", "normalised enrichment score": 8.1}
{"Change": "SNARRSLNNGGST [F9N]", "normalised enrichment score": 0.393}
{"Change": "SNERRSLNFGGST [A3E]", "normalised enrichment score": 1.22}
{"Change": "SNARRSLNFGGSR [T13R]", "normalised enrichment score": 7.76}
{"Change": "HNARRSLNFGGST [S1H]", "normalised enrichment score": 7.52}
{"Change": "SNARSSLNFGGST [R5S]", "normalised enrichment score": 0.593}
{"Change": "SNARRSYNFGGST [L7Y]", "normalised enrichment score": 0.939}
{"Change": "SNARRSLNFYGST [G10Y]", "normalised enrichment score": 7.32}
{"Change": "SNARRSLNFGGSA [T13A]", "normalised enrichment score": 7.35}
{"Change": "SNARRALNFGGST [S6A]", "normalised enrichment score": 9.36}
{"Change": "SNVRRSLNFGGST [A3V]", "normalised enrichment score": 8.04}
{"Change": "SNARRSLNFGGSC [T13C]", "normalised enrichment score": 6.99}
{"Change": "SNARRSLNSGGST [F9S]", "normalised enrichment score": 0.243}
{"note": "Excerpt of the above (sample 5):"}
{"Change": "SNARRALNFGGST [S6A]", "normalised enrichment score": 9.36}
{"Change": "SNARRSLNFYGST [G10Y]", "normalised enrichment score": 7.32}
{"Change": "SNARRSLNNGGST [F9N]", "normalised enrichment score": 0.393}
{"Change": "SNVRRSLNFGGST [A3V]", "normalised enrichment score": 8.04}
{"Change": "SNERRSLNFGGST [A3E]", "normalised enrichment score": 1.22}
{"Change": "SNARRSLNSGGST [F9S]", "normalised enrichment score": 0.243}
